Experimental data of several laboratories.
Each line is one published result; not all experiments were run side by side.
Target: Adenosine receptor A2a (ADORA2A, Homo sapiens, UniProt P29274)

COc1ccc(/C=C/c2nc3c(Cl)ncnc3[nH]2)cc1OC  IC50 (cAMP, ELISA): 22800 nM
CN(C(=O)c1ccn2ncc(-c3ccc(C(N)=O)cc3)c2c1)c1ccc(C#N)cn1  IC50 (ligand displacement): > 30000 nM
CC(=O)Nc1ccc(-c2c(C#N)c(N)nc(SCc3ccccc3)c2C#N)cc1  Ki (ligand displacement, radioligand; cell membranes): 27 nM
Nc1ncnc2c1ncn2[C@@H]1O[C@H](C(=O)NCCF)[C@@H](O)[C@H]1O  Ki (ligand displacement, radioligand; cell membranes): 140 nM
CCNC(=O)C1OC(n2cnc3c(NC(CC)CC)nc(NCCNC(=O)Nc4cc[n+](C)cc4)nc32)C(O)C1O (stereo not drawn)  EC50 (cAMP, agonist, luciferase): 0.331 nM
Oc1ccc(Nc2ncnc3[nH]c(/C=C/c4ccccc4)nc23)cc1  IC50 (cAMP, ELISA): 18700 nM
CCNC(=O)C1OC(n2cnc3c(N)nc(NCCNC(=O)Nc4cc[n+](C)cc4)nc32)C(O)C1O (stereo not drawn)  EC50 (cAMP, agonist, luciferase): 16.2 nM
COc1ncc(/C=C/c2nc3c(N)ncnc3[nH]2)cn1  IC50 (cAMP, ELISA): > 371000 nM
CCNC(=O)C1OC(n2cnc3c(NC(CC)CC)nc(NCCNC(=O)Nc4ccncc4)nc32)C(O)C1O (stereo not drawn)  EC50 (cAMP, agonist, luciferase): 0.145 nM
Nc1ncnc2c1ncn2[C@@H]1O[C@H](C(=O)NC2COC2)[C@@H](O)[C@H]1O  Ki (ligand displacement, radioligand; cell membranes): 850 nM
CCNC(=O)C1OC(n2cnc3c(NCC(C)C)nc(NCCNC(=O)Nc4cc[n+](C)cc4)nc32)C(O)C1O (stereo not drawn)  EC50 (cAMP, agonist, luciferase): 0.447 nM
COc1cccc(-c2c(C#N)c(N)nc(SCc3ncc[nH]3)c2C#N)c1  Ki (ligand displacement, radioligand; cell membranes): 38 nM
Nc1nc(SCCc2ccc(S(=O)(=O)O)cc2)nc2c1ncn2C1OC(CO)C(O)C1O (stereo not drawn)  EC50: 12.6 nM
CCNC(=O)C1OC(n2cnc3c(NCC(c4ccccc4)c4ccccc4)nc(NCCNC(=O)Nc4ccncc4)nc32)C(O)C1O (stereo not drawn)  EC50 (cAMP, agonist, luciferase): 0.912 nM
COc1ccc(/C=C/c2nc3c(Nc4ccc(Cl)cc4)ncnc3[nH]2)cc1OC  IC50 (cAMP, ELISA): 19500 nM
N#Cc1c(N)nc(SCc2ncc[nH]2)c(C#N)c1-c1ccc(O)cc1  EC50 (phosphorylation in cells, agonist, AlphaScreen): 6.31 nM
Nc1ncnc2[nH]c(/C=C/c3ccc(F)cc3)nc12  IC50 (cAMP, ELISA): > 392000 nM
CCNC(=O)C1OC(n2cnc3c(NCC(C)C)nc(NCCNC(=O)Nc4ccncc4)nc32)C(O)C1O (stereo not drawn)  EC50 (cAMP, agonist, luciferase): 0.977 nM

For quick reference, copied from above:
CCNC(=O)C1OC(n2cnc3c(NCC(C)C)nc(NCCNC(=O)Nc4ccncc4)nc32)C(O)C1O (stereo not drawn)  EC50 (cAMP, agonist, luciferase): 0.977 nM
Oc1ccc(Nc2ncnc3[nH]c(/C=C/c4ccccc4)nc23)cc1  IC50 (cAMP, ELISA): 18700 nM
COc1cccc(-c2c(C#N)c(N)nc(SCc3ncc[nH]3)c2C#N)c1  Ki (ligand displacement, radioligand; cell membranes): 38 nM
